Published values pooled from the literature.
A part holds a random share of what one study measured.

Set 1
Target: RNA binding protein fox-1 homolog 2, RRM domain, GST-SBP tag (RBFOX2, Homo sapiens, UniProt O43251-10, residues 100-194)
Technique: RNA Bind-n-Seq
Form: RNA
Sample: in vitro
Tested at: 365 nM
Notes: natural RNA segment, single round, ends assumed
Relative to: no-protein control
Reading: higher = stronger binding
Target sequence (chain): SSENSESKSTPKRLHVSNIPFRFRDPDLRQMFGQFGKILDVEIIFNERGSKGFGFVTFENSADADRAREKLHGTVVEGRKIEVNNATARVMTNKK
Sequence | RBNS enrichment (R)
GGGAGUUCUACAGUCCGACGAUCGCUGGAAUUGAGUGUGUGCCACCUUGACCAGCCUUUUGUUUCCUUUUUAAUACUAAACCUUACAGUCAGGAUUUGGAGUUCUUACAUCAUAUAUAAUAUGUAAUAAACCAUGGAAUUCUCGGGUGCCAA | 0.272
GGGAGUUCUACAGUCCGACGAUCAGCCUUUGAGAGAGAUUGAGAAAGGAGGCCCGCUUUGAGGCUAGCUGGGCUACGCGGUGAGGCCCUGUCUCACAGAGGCAGGGAGAGUGUUUUACUGGAAAAGCUGCAGUUGGAAUUCUCGGGUGCCAA | 0.556
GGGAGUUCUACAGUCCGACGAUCGCUGUGAUGAAAGAGAAAAAUGCAGAGUGCCAGUCACUGUGGUGUCUGGGGGAAAUCACCGGGGUUCAGGGGAGGGGAUUUCCCCGUGAAAUAAACUCAUCAUGGACACUUGGAAUUCUCGGGUGCCAA | 0.965
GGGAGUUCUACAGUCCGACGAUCAUCUCACGACGAAUAUUCUGAUACAAUACUCAACCUCGGUAUAUAUAUAUGUGUAUAAAUAUAUGUAUAUCCCAGCGGCACUUUAUACUGUUCACUGUACAAAAGCUUACUGGAAUUCUCGGGUGCCAA | 0.313
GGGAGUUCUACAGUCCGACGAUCGGACUGGGUUUAUCUUUCAGUUGACAAAAAUCCAAGUUGUCUUUUGCUAGAAUAAAGCAGAAGGGCUUUCCUAACAUGCUUUAGAGCUUUUAUUGCUUCUUACUGAUACUUGGAAUUCUCGGGUGCCAA | 0.36
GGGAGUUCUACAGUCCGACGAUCUGACUAAUACAGAGUUGACUUUAAAAAAAAGCCCCUCCAAAAACUCAACUCAGCAUCUCUCCCCCUAUGGACUUAACCCAAGUGUUUUUAAUGCUGGUAGCAGUUGGAUCUGGAAUUCUCGGGUGCCAA | 0.409
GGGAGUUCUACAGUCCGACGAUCGUGGAAAGUGCCCCUCAAAAGCAUUUGUGUGGCCACAUGAACUGGCUGGCACCAGGGGAGUGAAACUGGCUGAUGACCAGCUGAGCCACUUUGUGCCAACAGAGGAUGGAUGGAAUUCUCGGGUGCCAA | 0.272
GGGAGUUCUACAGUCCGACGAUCUCUUGCAUAGUUAGAAUUAAGCGUUUGUCCAUCUCUAGAUAACAUUGAAAAGUUUGAGUGUUACAGGCUCUAAAGUGCAAUGGAGAACAAUUGCUUAGGAGGAGGAAGGGUGGAAUUCUCGGGUGCCAA | 0.748
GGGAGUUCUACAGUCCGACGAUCCAAAAAACCCGCGACUUUAAAAUGAAAUAACGUGAGCCCAGAUGGGGAAGCUGAAGGGCUGGGCACUAGGAGGAGAUGCUGCUGCCAACCGAUCCUGGGGCUUUUCCCGCUGGAAUUCUCGGGUGCCAA | 0.519
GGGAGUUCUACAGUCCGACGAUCUGCAUUCAAGACACUUGCAAAUGUCUUUUUCUAAGCAGUAGUUAGAAAGAGCUCAAUUAUAGUAUUAACACCUUAAAGCCAAAACAUUUGUUCAACACAAACUACCAUCAUGGAAUUCUCGGGUGCCAA | 0.501
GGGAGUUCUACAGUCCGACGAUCGAUCAUAAAGAGCUAUUUUUGACACCCCCCCCCCACUUUUUUAACAUUUAGAGUUAGUAAGGGUUUUAUAUCUCUUCUGUCCAUAUUGUUUUCAAAGGAAUGAGGUGUUUUGGAAUUCUCGGGUGCCAA | 0.445
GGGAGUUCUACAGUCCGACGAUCAGCAUAUAUUUAUAUGAUAAGUUUAGAUUAUGAGCGUGAGUACCAAUUAAGUUUGAAUGAAUGCCCCUUUUAUGUAGAGUGCUGGUCCCCAGUCAUUGCUGUCUGCAAGUUGGAAUUCUCGGGUGCCAA | 0.378

Set 2
Target: Hepatocyte nuclear factor 3-alpha (Foxa1, Mus musculus, UniProt P35582, residues 1-468, full length assumed)
UniProt P35582, sequence (whole entry, looked up): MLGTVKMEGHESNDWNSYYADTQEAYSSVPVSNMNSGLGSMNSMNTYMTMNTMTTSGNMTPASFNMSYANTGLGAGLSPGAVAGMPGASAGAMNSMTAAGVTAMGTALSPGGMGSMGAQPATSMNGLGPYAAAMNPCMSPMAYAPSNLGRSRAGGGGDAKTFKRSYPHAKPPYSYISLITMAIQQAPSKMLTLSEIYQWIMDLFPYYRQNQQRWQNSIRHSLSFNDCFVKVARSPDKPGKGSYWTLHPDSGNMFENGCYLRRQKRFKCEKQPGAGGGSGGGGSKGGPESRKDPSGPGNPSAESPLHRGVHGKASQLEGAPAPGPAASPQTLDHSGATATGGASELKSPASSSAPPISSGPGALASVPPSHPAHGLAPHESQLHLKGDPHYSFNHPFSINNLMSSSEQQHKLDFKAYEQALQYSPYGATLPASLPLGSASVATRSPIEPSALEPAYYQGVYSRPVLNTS
Technique: EMSA with sequencing
Form: double-stranded DNA, one strand shown
Sample: in vitro
Tested at: 10 and 20 nM
Notes: whole designed probe, mean of two concentrations, ends assumed
Relative to: negative control set to 0
Reading: higher = stronger binding
Sequence | normalised bound fraction [ratio]
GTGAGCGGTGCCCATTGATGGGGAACTCTTCTTTAGGACTCCTCCCACCCCTGCCTCTTCGGGCTTTGTTTTCTATGAGAGTGGAGACTACCAACTCTTCATATCTTCCCAGAGTCCCTGTTTACATATAACATTTTCGTTTTTTCTTTTTTTAAATAAAAGTTTATTCAGACAGTATTAGGCCAACTGATTTTACGAATTGTAATTATACGAAGCCCATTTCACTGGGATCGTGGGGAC | 0.231
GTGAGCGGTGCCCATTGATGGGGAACTTTATGCTTTGTTTGAATAACAAGAATGGAGGAGATAAGGGGAACAACTGTACTTCCTAATGGTTAGTCCACAAAAAGCCATTAGCATTCACTGTAATCTGCATTCATCAATGTGCTGTCTTAGGTCAGGATCAACTTCCTTATCTAAACTTGAGAAGGGACTGCCCTTTTTTCTCTATCTCACTTATAATACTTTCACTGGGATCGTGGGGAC | 0.236
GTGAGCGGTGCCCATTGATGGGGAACATCTTCCCCCTCTTCCTTGCCCCACCAGCTCACCTACGGGGGTTATTTGCAGATAGGAAAATAAATAAAGCCGGCATTCGTTAACCCTCTTCTGGCGCAAACTGCTGTTTGCTCTGGATGAATCATGGTCCTTTGGCGACGCCAGGCTCCGGGAGAGCAAAGCACCGTGTCAGGGCCATGATCCGGGCTCGCCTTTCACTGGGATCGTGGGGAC | 0.333
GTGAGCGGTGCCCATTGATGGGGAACTGTATCCATCTGGGCAGTATCTTCTCTGGGCCTGGCCTGTCATAGGTGCTTCAGGTTTCCCCATTTGAACCAGATACCAGTCGGGTTACCGGATGTTTGCTTAAAATGGGCTTCCTGCTAGTCATAATTCCTGTGCTGCTTCCAGCTAGGACTGATCGAATCAGTCTGGATTTTCCTTGGGGTGATCCGCAGGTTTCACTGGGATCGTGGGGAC | 0.142
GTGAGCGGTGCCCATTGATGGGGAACATGCTTGGAAATATTTTAAACAGTGAAATCACCAACAAAAAGAGCATAAAAATGTGAAAAACATGGCTCTAAATAGCCCGCCAAAAGGGCACTTATTTACAGAGCTGAACCACAAAGGCAGAACGTCATCTTGTTCGATCTCAGCTAGGAACGTGCTCATAGGGTGACTCAGATTTTTGGCCACTGTGTGCATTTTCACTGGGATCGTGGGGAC | 0.108
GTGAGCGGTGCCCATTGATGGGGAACAATAGCGCTCTGGAGAGAAGGTCCGTTCCATGCCCAGGTAGGGAGGAGGGGGAAAAATGATACTGGCGGGCAGGGAGAGGGGAAGGCAAGAAAGCAAACAGGCGTGGAAGAGCTGTGAGCTCAAATCTGACTTCTTTTGTCTGTAGACGGGGGAATCCAGGGTGACTGGGTATAATCTGTATTATCTAGGTCCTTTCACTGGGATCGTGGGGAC | 0.0546

Set 3
Target: Interferon regulatory factor 5, full length, phosphomimetic (IRF5, Homo sapiens, UniProt Q13568-2, residues 1-514, S451D/S453D/S456D/S462D)
Technique: protein-binding microarray
Form: double-stranded DNA, one strand shown
Sample: in vitro
Tested at: 940 nM top
Notes: 60-bp whole probe
Added: salmon DNA 0.4 mg/ml
Relative to: random background probes
Reading: higher = stronger binding
Constant ends, left off below: GCCTAGCAC … GTCTTGATTCGCTTGACGCTGCTG
Sequence | fitted relative affinity [z-score]
GACGGTTTCCTGCTGCTGACGTGCTAG | 0.578
TCATATTTACCTCTCACACTGTGCTAG | 1.02
TTAGAGTTCGGGTTTCGATTAGTGCTA | 4.8
TTAGATTCCTGTTTCGATTAGTGCTAG | 4.42
GACGGTTTCGGTCTCGGGAAGTGCTAG | 13.7
TCCATCATTGCTTTCTCTTTGTGCTAG | 1.83
ATTTACATGCATATAGTATAGTGCTAG | -0.0807
TTTTCTTTTCATTACTGCATGTGCTAG | 1.99
TTAGGACTGCTTCTCCTTCAGTGCTAG | -0.207
AATGATTACATATATGTTGGTGTGCTA | 0.212
TAGATATTATATCTGTGTTAGTGCTAG | -0.271
TTTGGTTTCGGGACTGGGTTAGTGCTA | 10.5
TTAGGTCTCATTCTCCTTTAGTGCTAG | 1.83
TCATTTCTCTTTCATTGCACTGTGCTA | 2.04
GACGATTTCGGGTACCGAGACGTGCTA | 0.716
TTAGAACTGAGTATCGAGTAGTGCTAG | 1.61
GTCGATCTCAGACTGGAGACGTGCTAG | -0.16
GACGGACTGCAACTGCTGACGTGCTAG | -0.742
CACGGTTTCGACACTGGGGACGTGCTA | 6.84
GACGGACTGTACTATCGGGACGTGCTA | -0.328
TTTCTTTTCCATTTTGTGTTGTGCTAG | 4.1
GACAATTTGGAAACCGAGTGGTGCTAG | -0.133
TCATTATTTTTTTTATTACTGTGCTAG | 1.6
TTAGATAACGGGTTTCGATTAGTGCTA | 5.22

Set 4
Target: Ras GTPase-activating protein-binding protein 1, RRM domain (G3BP1, Homo sapiens, UniProt Q13283)
UniProt Q13283, sequence (whole entry, looked up): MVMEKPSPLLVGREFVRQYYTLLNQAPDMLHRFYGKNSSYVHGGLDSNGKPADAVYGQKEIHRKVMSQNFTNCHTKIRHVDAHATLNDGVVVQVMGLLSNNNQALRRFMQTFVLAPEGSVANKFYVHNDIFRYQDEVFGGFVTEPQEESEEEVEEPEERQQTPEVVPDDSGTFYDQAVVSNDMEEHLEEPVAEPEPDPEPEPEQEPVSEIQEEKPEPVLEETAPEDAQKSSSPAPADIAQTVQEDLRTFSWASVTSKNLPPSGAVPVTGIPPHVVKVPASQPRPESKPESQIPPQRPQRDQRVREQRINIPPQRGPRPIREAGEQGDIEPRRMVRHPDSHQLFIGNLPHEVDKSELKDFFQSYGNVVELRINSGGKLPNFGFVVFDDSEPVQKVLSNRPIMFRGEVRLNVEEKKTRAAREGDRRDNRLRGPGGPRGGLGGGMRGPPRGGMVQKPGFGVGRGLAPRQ
Technique: RNA Bind-n-Seq
Form: RNA
Sample: in vitro
Tested at: 1 µM
Notes: whole 134-nt RNA, ends assumed
Added: 150 mM KCl
Relative to: input library
Reading: higher = stronger binding
Sequence | log2 enrichment
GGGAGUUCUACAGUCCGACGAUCCUCAAGUCCUGUGCUACACAUCGUAUGUACCGAAUCGGUUGGUUGGGGUUGGGGAAAGUAUUAUGUUACGCCGUUCGGAUCUGCACUUCCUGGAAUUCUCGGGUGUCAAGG | -0.135
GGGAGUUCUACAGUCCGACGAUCCUGUGCUACACAUCGUAUGUACCGAAUCGGUUUUUUUGGGGUUUUUUUGGUUUUUUUGGGGAAAGUAUUAUGUUACGCCGUUCGGAUCUGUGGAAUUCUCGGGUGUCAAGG | -0.318
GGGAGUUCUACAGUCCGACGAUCUGAUGGGACAACACCCGAAAGGAUAGCACAAAUAACAGGACCUCCAGACCGAUGUCAACAUGCUGCAGAAAUUAUUACAGACCUUCUUCGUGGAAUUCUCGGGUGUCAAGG | 0.0649
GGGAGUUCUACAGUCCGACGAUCACCAUGCAGGUGGGCAUCUUUGGGAAGUGGGGCAAGGGGGGGAUAGGGAGGGGGGUAACACUUUGGGAUCAGGUGGUCCCAGGUCGUUUCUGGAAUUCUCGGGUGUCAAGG | 0.651
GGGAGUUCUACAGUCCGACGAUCUCCUGUGCUACACAUCGUAUGUACCGAAUCGGGGUUUUUGGGGUUUUUGGGGAAAGGGGAAAGUAUUAUGUUACGCCGUUCGGAUCUGCAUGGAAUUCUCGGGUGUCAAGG | 0.993
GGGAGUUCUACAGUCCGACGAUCAGUCCUGUGCUACACAUCGUAUGUACCGAAUCGGGUUUUUGGGAAAAAAAGGGAGGGAAAGUAUUAUGUUACGCCGUUCGGAUCUGCACUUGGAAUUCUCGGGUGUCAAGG | 0.46
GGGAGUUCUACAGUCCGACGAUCCCUGUGCUACACAUCGUAUGUACCGAAUCGGGGUUUGGGGUUUUUGGGGUUUUUUUGGGGAAAGUAUUAUGUUACGCCGUUCGGAUCUGCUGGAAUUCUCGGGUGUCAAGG | 1.25
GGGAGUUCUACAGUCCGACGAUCCUGUGCUACACAUCGUAUGUACCGAAUCGGGGAAAAAAGGGGAAAAAAGGGGAAAAAAGGGAAAGUAUUAUGUUACGCCGUUCGGAUCUGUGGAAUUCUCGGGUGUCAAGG | 0.0944
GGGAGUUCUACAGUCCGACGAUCUCAAGUCCUGUGCUACACAUCGUAUGUACCGAAUCGGAAGGGGAAGGGAAGGGGAAAGUAUUAUGUUACGCCGUUCGGAUCUGCACUUCCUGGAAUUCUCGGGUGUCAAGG | 0.659
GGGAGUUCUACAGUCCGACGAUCCCUCUGGACGAGACCAGCCAGAUGAGCGACCUCCCGGUGAAGGUGAUCCACGUGGAGAGUGGGAAGAUCCUCACAGGCACAGAUGCCCCCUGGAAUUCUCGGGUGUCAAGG | -0.466
